Experimental data pooled from the literature.
Parts stem from different laboratories: compare values within a part only. Substitutions count along the parent as printed.

Set 1 — technique: RNA Bind-n-Seq; molecule type: RNA; matrix: in vitro; concentration: 365 nM; baseline: no-protein control; reading: higher = stronger binding
Target: RNA binding protein fox-1 homolog 2, RRM domain, GST-SBP tag (RBFOX2, Homo sapiens, UniProt O43251-10, residues 100-194)
Setting: natural RNA segment, single round, ends assumed
Shared flanks, not repeated: GGGAGUUCUACAGUCCGACGAUC … UGGAAUUCUCGGGUGCCAA
Residues (chain): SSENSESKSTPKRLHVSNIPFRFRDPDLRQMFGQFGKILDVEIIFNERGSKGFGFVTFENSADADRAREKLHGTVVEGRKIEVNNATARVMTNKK
| Sequence | RBNS enrichment (R) |
| --- | --- |
| GCGCUUACGGGCCCCAGGUGCCUACUAGGCUGCCUUCCUCUUCCCCGCUGUCAGUCUGUGUCCUCCACGUGCUUAUUUCCUGUGGUGAGAGCAGUUGUGGUGUUUGUAUA | 0.438 |
| GGGCUGCCAUGGUCACAAGCACACUGAUGCUCCUUAAGAUUGUUUAUCUGGAGCCCACAUAGUGUGGAACAAAAAGUCACCUAGAAAGCAUCCUUGGUCAUCAUUGUCUC | 0.255 |
| GUUUGUAAUUGUGCAUUACUGACUGCAUAUGUUUGUGUAUGUGUAAAUGUGGGCUCCCUGUUAAGUGGGGCUCAUGGAUACGAGGCCUGAGGAAGUGUGGCUUGCUAGUC | 0.928 |
| UUUAGGCUAAUUAUACACGUCUGUCUGUGCCAUGAGUAAGUGGACUGUAGUUGGACCAAAAAAACAAAUGAGCCGUUGGACCAUUUGAGCAGUCAGUUUCUGGUCCUUAG | 0.839 |
| GGACUCCCUAGUGCCCAUGCUGAGAUCUCAGCAUGUUCUAGAUGGGUCCUCUAGAGCACGGGUUUGGAGAAAUGACUGUUUUCAUGAAAGCACCAUUAGCACCACAGAAU | 1.16 |
| UCAACAUGUUCAUCAACAUGCGUGCACAUAGACAUGAAUGCACGCCCUUCUUUCAAGGCAGAUUGAUAGGUCUUUAGAACAAACAUUUCACAGGGAUCAUUCUCUUCUCU | 0.303 |
| CUGAGCAUUCUUACACUUGAUGGAAAAAUUAAAGCCUAGAAGGACCAAAGAUGUCCUUAUUGACAAAGCUGGCCUUUGUCACCUGAUUCCAGUAUUCUCACUGUCUUCUA | 0.381 |
| UUCUGUGCAUGUACUAAAAAAGGAGAAAUUAUAAUAAAUUAGCCGUCUUGCGGCCCCUAGGCCUAAACUUCUGGUAUCUUAGUGUCUCAGUAUCUUAGUGUCCUUCACUC | 33.4 |
| GUUUAGUGAAAACUAGAGAAACACAAUAAGCAAAUCACUUGAAGGCUGAGAUGAUUGAACUGAAAGUUCCCAUAGCGUGGAUGAAACCGAGCAGCAGAGCAGCAGGACAU | 0.648 |
| CGUGUCCAGGUCCAAAGUGGAGAGCCUGCCUUUGGGUUUAGUUCCCGAAUCAGAAUCCCAUCUCACCAGGGCGAAAUUUUAAUUUAAAAACUUAAAAAGAGACUUUUCUA | 0.409 |
| UGUAUCUAGACUUCAAGGACAGGGUUUGUCUCACAGGAUUGUCACUUAGGAGAUGAAAGAAUAUUACCACAUGAGGAGGAGGGGCAGUUGCAACAGAACACUUUGGUCUU | 0.686 |
| UUGGUUUUUGAUUGUUGCAUUUUUCCUGUUUCUUAGGAUUGAGUUGAUUGGUUUGACGUGUUUGGUUCAGUGUCACGCACUGAUACAUGUUCUCUGUAAUUACAUGUCAC | 0.565 |

Set 2 — technique: aptamer microarray, sandwich; molecule type: DNA with 2'F-ANA; matrix: in vitro; concentration: 200 nM; added: Cy3 exosite-II aptamer, 400 nM; reading: higher = stronger binding; sequence: GGTTGGTGTGGTTGG
Target: Prothrombin, mature alpha-thrombin (F2, Homo sapiens, UniProt P00734)
Setting: whole 15-mer aptamer, many near background
| Modification | mean fluorescence intensity [a.u.] |
| --- | --- |
| 2'F-ANA at 3 7 8 9 10 11 14 | 501 |
| 2'F-ANA at 1 3 4 5 6 8 9 13 14 | 49.9 |
| 2'F-ANA at 1 2 4 6 7 8 9 11 12 14 15 | 62.4 |
| 2'F-ANA at 1 3 7 8 10 11 15 | 81.3 |
| 2'F-ANA at 1 2 6 7 8 10 11 | 56.4 |
| 2'F-ANA at 1 4 8 9 11 12 13 15 | 140 |
| 2'F-ANA at 2 3 6 7 8 9 12 13 15 | 834 |
| 2'F-ANA at 2 4 6 8 9 12 13 15 | 301 |
| 2'F-ANA at 3 5 6 7 8 9 11 12 13 15 | 140 |
| 2'F-ANA at 2 4 5 6 12 15 | 139 |
| 2'F-ANA at 1 2 3 5 8 9 13 | 53.6 |
| 2'F-ANA at 1 3 4 7 9 11 12 13 15 | 195 |
| 2'F-ANA at 2 4 5 11 12 14 15 | 44.2 |
| 2'F-ANA at 3 4 6 11 13 14 | 235 |
| 2'F-ANA at 1 2 3 5 6 7 8 9 11 13 14 15 | 49.8 |
| 2'F-ANA at 1 2 3 7 8 9 11 12 13 14 | 83.4 |

Set 3 — target: CCNB2, cyclin fold, Cln2 fusion (human); technique: yeast growth competition, sequencing; matrix: yeast; setting: weak parent motif; baseline: not given; reading: higher = stronger binding
Starting sequence: REPIN1 docking peptide (human); QSFRGWVALVLHL
| Variant | normalised enrichment score |
| --- | --- |
| V10A | -0.0536 |
| V7A | 0.505 |
| S2A | 0.233 |
| R4A | -0.289 |
| L11A | 0.882 |
| G5A | 0.626 |

Set 4 — technique: protein binding microarray; molecule type: double-stranded DNA, one strand shown; matrix: in vitro; concentration: not given; baseline: not given; reading: higher = stronger binding
Target: Histone acetyltransferase KAT6A, both winged helices, GST fusion (KAT6A, Homo sapiens, UniProt Q92794, residues 1-181)
Setting: 8-mer, flanks averaged, mean of 2 arrays, mostly near background
Construct (chain): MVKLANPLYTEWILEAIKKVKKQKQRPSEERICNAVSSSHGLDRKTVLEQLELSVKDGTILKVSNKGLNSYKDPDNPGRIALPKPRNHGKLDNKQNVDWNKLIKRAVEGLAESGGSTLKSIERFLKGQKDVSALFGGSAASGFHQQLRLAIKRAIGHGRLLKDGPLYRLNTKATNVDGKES
| Sequence | E-score |
| --- | --- |
| GCACTCTA | -0.0451 |
| AACTGCTA | -0.16 |
| GAGGGTCA | -0.0964 |
| CTAAGATA | -0.151 |
| CTCTGTTC | -0.163 |
| CTATGCGC | 0.262 |
| ATCAAGAA | -0.146 |
| GAAGGAGC | -0.0225 |
| GCGCCAGA | 0.173 |
| GGCAGTGA | -0.117 |
| GCGCTAGC | 0.19 |
| AGCGGCCA | 0.178 |
| TACGTTCA | -0.0858 |
| GTAGTGAA | -0.047 |
| CCTGATCG | -0.0684 |

Some of these lines once more (set 2):
| Modification | mean fluorescence intensity [a.u.] |
| --- | --- |
| 2'F-ANA at 1 2 4 6 7 8 9 11 12 14 15 | 62.4 |
| 2'F-ANA at 1 3 7 8 10 11 15 | 81.3 |
| 2'F-ANA at 1 2 6 7 8 10 11 | 56.4 |
| 2'F-ANA at 1 4 8 9 11 12 13 15 | 140 |
| 2'F-ANA at 2 3 6 7 8 9 12 13 15 | 834 |
| 2'F-ANA at 2 4 6 8 9 12 13 15 | 301 |
